Results collected from several papers.
A part holds a random share of what one study measured.
Sequence of UniProt Q9Y243 (whole entry, looked up): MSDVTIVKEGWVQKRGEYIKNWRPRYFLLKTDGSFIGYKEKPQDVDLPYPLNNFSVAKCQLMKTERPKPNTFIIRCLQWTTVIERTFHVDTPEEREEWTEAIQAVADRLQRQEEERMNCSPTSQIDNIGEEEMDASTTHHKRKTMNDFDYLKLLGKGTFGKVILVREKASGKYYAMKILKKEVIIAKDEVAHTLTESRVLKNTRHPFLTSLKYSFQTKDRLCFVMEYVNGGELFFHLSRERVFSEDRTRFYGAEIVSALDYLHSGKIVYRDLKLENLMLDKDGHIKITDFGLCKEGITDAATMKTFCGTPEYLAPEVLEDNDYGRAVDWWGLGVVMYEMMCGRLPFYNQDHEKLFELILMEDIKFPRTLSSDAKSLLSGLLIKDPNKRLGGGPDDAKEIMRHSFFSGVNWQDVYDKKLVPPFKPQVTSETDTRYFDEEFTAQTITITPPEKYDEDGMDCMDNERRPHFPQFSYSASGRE
Sequence of UniProt Q92918 (whole entry, looked up): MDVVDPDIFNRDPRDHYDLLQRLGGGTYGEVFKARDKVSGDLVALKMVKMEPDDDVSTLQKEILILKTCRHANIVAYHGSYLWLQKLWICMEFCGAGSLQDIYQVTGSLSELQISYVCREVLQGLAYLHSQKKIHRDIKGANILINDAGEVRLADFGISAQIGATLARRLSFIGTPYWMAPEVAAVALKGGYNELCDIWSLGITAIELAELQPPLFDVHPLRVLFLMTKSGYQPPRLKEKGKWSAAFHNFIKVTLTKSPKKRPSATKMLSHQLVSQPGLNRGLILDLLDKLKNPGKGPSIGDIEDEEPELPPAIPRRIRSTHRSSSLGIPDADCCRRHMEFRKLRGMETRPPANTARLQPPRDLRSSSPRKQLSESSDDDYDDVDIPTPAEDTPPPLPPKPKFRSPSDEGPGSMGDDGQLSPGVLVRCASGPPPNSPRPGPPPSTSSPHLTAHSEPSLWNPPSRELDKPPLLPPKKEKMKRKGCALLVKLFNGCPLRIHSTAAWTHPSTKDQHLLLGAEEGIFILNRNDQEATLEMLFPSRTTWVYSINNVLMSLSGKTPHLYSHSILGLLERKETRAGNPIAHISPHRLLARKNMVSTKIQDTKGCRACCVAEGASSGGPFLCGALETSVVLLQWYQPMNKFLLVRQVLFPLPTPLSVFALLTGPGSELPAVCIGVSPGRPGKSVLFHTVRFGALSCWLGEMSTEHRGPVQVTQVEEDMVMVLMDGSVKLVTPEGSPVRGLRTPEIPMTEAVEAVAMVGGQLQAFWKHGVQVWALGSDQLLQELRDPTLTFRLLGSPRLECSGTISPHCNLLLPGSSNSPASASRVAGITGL
Sequence of UniProt P35626 (whole entry, looked up): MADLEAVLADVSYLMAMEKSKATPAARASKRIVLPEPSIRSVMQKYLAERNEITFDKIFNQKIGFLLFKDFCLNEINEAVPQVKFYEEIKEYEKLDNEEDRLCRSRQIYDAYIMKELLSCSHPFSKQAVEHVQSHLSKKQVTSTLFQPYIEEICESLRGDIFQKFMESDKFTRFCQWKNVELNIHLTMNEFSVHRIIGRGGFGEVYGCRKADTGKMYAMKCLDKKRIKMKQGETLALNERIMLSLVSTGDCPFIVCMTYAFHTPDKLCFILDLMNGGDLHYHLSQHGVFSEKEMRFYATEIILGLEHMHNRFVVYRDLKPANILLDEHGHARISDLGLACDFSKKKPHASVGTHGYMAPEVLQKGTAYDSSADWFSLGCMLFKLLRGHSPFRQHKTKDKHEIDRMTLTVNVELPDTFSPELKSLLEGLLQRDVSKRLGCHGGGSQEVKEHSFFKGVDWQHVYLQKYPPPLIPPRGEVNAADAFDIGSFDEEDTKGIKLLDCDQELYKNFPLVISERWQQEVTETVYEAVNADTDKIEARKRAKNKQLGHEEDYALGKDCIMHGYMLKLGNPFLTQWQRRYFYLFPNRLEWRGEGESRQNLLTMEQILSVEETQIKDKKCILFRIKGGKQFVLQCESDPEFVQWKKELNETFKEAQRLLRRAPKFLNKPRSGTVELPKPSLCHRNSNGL

Sample 1 — organism: Sarcocystis neurona; observed: parasite growth; concentration: 10 µM; time: 96 h; notes: second screen; baseline: untreated; quantity: log2 fold change
CC1CNc2c(cccc2S(=O)(=O)N[C@@H](CCCNC(=N)N)C(=O)N2CC[C@@H](C)C[C@@H]2C(=O)O)C1 (some centres unmarked): 0.33
COc1ccc(-c2oc3c(CC=C(C)C)c(O[C@@H]4O[C@H](CO)[C@@H](O)[C@H](O)[C@H]4O)cc(O)c3c(=O)c2O[C@@H]2O[C@@H](C)[C@H](O)[C@@H](O)[C@H]2O)cc1: 0.21
CC(C)(O)c1ccccc1CC[C@@H](SCC1(CC(=O)O)CC1)c1cccc(/C=C/c2ccc3ccc(Cl)cc3n2)c1: 0.39
CC(C[N+](C)(C)C)OC(N)=O (centres unmarked): 0.21
CC(C)c1nc(CN(C)C(=O)N[C@H](C(=O)N[C@@H](Cc2ccccc2)C[C@H](O)[C@H](Cc2ccccc2)NC(=O)OCc2cncs2)C(C)C)cs1: -0.18
O=c1c(O[C@@H]2O[C@H](CO)[C@H](O)[C@H](O)[C@H]2O)c(-c2ccc(O)c(O)c2)oc2cc(O)cc(O)c12: 0.37

Sample 2 — observed: enzyme activity; action: inhibitor; concentration: 0.5 µM; baseline: control; quantity: remaining activity
Target: cAMP-dependent protein kinase catalytic subunit PRKX (PRKX, Homo sapiens, UniProt P51817)
Target sequence (P51817 1-358): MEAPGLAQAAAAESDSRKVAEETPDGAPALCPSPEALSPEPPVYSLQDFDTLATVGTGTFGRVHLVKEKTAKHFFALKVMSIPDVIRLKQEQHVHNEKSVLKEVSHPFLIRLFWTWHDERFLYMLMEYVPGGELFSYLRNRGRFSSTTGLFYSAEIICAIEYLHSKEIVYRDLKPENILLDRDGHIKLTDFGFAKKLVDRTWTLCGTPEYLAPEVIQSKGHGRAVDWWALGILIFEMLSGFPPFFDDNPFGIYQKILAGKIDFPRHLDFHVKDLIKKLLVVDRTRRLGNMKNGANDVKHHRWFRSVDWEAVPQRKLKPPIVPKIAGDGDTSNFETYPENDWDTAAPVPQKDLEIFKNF
OCC(O)CCON=C1C(c2c(O)[nH]c3ccccc23)=Nc2ccccc21 (centres unmarked): 84.2%
Cc1ccc(Nc2nccc(N(C)c3ccc4c(C)n(C)nc4c3)n2)cc1S(N)(=O)=O: 101%
CNC(=O)c1cc(Oc2ccc(NC(=O)Nc3ccc(Cl)c(C(F)(F)F)c3)cc2)ccn1: 97.7%
Oc1ccc(-c2nc(-c3ccncc3)c(-c3ccc(F)cc3)[nH]2)cc1: 84%
COc1cc2ncnc(Nc3ccc(Oc4ccccc4)cc3)c2cc1OC: 95.2%
COc1cc2nccc(Oc3ccc(NC(=S)NC(=O)c4ccccc4C)cc3)c2cc1OC: 100%
COc1ccc(C(=O)Nc2sc3c(c2C(N)=O)CCCC3)cc1OC: 101%
CCOC(=O)c1c(C)[nH]c(/C=C2\C(=O)Nc3ccccc32)c1C: 94.8%
O=S(=O)(c1cccc2cnccc12)N1CCCNCC1: 23.5%
COc1ccc(CNC(=O)Nc2ncc([N+](=O)[O-])s2)cc1: 72.1%
Nc1ccc2ncnc(NCCc3ccc(Oc4ccccc4)cc3)c2c1: 104%
COc1ccc(OC)c2c(=S)c3ccccc3[nH]c12: 93.5%
Nc1ncnc2n[nH]c(Nc3ccc(F)cc3)c12: 90.4%
Cn1sc(=O)n(Cc2ccccc2)c1=O: 102%
O=C1NC(=O)C(c2cn(CCCO)c3ncccc23)=C1c1cnccn1: 106%

Sample 3 — observed: enzyme activity; action: inhibitor; concentration: 77 µM; baseline: untreated; quantity: remaining activity
Target: DNA polymerase theta, ATPase domain (POLQ, Homo sapiens, UniProt O75417)
Sequence of UniProt O75417 (whole entry, unmodified, looked up): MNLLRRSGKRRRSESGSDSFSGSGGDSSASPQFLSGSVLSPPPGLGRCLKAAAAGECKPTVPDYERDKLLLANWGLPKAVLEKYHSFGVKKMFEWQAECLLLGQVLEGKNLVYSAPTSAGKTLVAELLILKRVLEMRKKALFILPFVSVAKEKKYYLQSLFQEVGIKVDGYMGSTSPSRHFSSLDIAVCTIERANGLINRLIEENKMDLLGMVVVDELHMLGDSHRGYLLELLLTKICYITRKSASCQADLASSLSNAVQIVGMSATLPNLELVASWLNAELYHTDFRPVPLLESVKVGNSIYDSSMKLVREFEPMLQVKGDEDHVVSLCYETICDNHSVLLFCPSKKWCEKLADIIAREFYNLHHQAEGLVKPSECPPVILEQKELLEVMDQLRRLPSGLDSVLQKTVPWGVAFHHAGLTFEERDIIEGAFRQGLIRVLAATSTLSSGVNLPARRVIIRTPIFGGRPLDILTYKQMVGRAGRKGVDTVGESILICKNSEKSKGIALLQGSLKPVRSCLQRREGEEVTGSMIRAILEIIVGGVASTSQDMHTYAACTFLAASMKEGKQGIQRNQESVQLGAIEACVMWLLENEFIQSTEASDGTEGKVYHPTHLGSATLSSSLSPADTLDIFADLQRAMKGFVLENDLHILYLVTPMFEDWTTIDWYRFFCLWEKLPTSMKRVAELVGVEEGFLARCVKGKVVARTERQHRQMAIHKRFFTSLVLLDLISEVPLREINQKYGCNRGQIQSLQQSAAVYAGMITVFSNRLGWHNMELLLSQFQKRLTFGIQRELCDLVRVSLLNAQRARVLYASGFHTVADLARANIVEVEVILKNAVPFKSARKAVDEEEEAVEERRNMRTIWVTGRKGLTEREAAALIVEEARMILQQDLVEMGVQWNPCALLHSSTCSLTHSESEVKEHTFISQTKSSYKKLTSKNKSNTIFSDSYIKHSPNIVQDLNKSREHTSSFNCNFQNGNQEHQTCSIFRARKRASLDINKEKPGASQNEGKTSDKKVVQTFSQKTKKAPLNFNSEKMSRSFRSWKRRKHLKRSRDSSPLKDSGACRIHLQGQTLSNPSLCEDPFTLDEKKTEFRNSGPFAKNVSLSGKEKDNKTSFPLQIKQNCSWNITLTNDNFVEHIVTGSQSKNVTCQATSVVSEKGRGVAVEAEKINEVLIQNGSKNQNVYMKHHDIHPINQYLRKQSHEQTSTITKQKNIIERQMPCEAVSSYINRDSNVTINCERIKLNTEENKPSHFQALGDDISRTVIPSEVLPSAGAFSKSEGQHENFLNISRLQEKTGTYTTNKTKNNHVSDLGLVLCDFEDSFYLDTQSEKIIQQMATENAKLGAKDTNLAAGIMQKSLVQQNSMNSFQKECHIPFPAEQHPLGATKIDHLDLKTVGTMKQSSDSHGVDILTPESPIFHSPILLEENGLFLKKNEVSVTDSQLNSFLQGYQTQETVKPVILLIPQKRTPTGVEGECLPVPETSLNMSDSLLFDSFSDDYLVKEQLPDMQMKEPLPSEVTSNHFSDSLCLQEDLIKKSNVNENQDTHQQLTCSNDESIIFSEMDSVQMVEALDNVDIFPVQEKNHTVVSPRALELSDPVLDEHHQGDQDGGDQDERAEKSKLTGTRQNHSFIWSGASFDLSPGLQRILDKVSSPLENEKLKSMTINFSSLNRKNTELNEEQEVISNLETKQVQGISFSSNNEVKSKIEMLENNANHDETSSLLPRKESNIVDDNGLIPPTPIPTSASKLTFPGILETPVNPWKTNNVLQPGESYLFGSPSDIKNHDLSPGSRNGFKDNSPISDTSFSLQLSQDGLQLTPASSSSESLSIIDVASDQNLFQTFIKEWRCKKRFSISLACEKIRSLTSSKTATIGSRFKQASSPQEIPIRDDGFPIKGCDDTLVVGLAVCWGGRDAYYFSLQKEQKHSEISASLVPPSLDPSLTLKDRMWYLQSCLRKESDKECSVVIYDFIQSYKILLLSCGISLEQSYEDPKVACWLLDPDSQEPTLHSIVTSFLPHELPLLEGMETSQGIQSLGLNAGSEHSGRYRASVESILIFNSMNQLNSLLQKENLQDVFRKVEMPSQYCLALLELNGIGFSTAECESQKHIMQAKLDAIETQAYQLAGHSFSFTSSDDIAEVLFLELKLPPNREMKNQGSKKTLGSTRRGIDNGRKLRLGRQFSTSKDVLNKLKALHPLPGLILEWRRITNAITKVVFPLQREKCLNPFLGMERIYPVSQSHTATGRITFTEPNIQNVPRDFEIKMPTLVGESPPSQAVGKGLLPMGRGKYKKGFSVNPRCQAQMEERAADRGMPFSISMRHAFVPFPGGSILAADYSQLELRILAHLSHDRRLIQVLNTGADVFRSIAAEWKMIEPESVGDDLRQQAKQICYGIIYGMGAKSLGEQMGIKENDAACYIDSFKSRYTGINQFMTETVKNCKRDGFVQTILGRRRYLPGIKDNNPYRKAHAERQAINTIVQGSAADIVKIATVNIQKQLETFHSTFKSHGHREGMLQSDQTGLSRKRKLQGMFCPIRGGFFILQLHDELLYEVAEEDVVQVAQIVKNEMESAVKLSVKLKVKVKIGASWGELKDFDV
CN(C)CCOC(c1ccc(Cl)cc1)c1ccccn1 (centres unmarked): 96.7%
Cc1nc2sccn2c(=O)c1CCN1CCC(=C(c2ccc(F)cc2)c2ccc(F)cc2)CC1: 98%
Cc1cnc(-c2cc(N3CCN(C(=O)CCS(C)(=O)=O)CC3)ncc2Cl)c(C)c1: 90.3%
Cn1c(=O)c(-c2c(Cl)cccc2Cl)cc2cnc(Nc3ccc(N4CCOCC4)cc3)nc21: 99.7%
CCCNC(C)(C)COC(=O)c1ccccc1: 102%
CCN1CCCC1CNC(=O)c1cc(S(=O)(=O)CC)c(N)cc1OC (centres unmarked): 105%

Sample 4 — observed: cell-free assay; technique: competition with immobilised ligand; concentration: 0.1 µM; quantity: remaining binding
SMILES: Nc1c(C(=O)NCc2ccc(C(=O)NCCCC3CCCCC3)cc2)cnn1-c1ccccc1
Tyrosine-protein kinase JAK1, JH2 (JAK1, Homo sapiens, UniProt P23458): 100%
GRK3 (Homo sapiens, UniProt P35626): 100%
CIT (Homo sapiens, UniProt O14578): 100%
AKT3 (Homo sapiens, UniProt Q9Y243): 78%
MAP4K1 (Homo sapiens, UniProt Q92918): 99%
